Assay results gathered from unrelated publications.
Each numbered part is a random draw from the data of one study; scales do not carry over between parts. Positions count from the first letter of the parent shown.

Study 1
Target: CCND2, cyclin fold, Cln2 fusion (human)
Method: yeast growth competition, sequencing
Sample: yeast
Setting: weak parent motif
Baseline: not given
Reading: higher = stronger binding
Parent: viral docking peptide; TSVRRALFTGGSD; partner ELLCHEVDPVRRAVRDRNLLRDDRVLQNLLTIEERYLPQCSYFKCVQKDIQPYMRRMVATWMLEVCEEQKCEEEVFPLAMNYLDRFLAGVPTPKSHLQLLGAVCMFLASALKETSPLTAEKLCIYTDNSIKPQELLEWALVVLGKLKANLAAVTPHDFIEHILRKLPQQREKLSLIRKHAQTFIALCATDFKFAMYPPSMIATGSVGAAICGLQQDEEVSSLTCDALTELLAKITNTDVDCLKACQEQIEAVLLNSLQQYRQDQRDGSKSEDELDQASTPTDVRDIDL
| Change | normalised enrichment score |
| --- | --- |
| TSVRRALFTGDSD [G11D] | -0.0303 |
| TSVRRALFTAGSD [G10A] | 0.23 |
| TSVRNALFTGGSD [R5N] | 0.0806 |
| TSVRQALFTGGSD [R5Q] | 0.0966 |
| TSVRRALFTEGSD [G10E] | 0.437 |
| TYVRRALFTGGSD [S2Y] | 0.0997 |
| TSVRRALDTGGSD [F8D] | -0.0642 |
| TSVSRALFTGGSD [R4S] | 0.288 |
| TEVRRALFTGGSD [S2E] | 0.197 |
| TSERRALFTGGSD [V3E] | 0.0886 |
| TSVRRALFTGKSD [G11K] | -0.117 |
| TSVRRALFTGGLD [S12L] | -0.205 |
| TAVRRALFTGGSD [S2A] | 0.224 |
| TFVRRALFTGGSD [S2F] | 0.292 |
| TSVRRALFTGGTD [S12T] | -0.0256 |

Study 2
Target: TAR DNA-binding protein 43, full length, His tag (TARDBP, Homo sapiens, UniProt Q13148, residues 1-414)
Method: RNA Bind-n-Seq
Molecule type: RNA
Sample: in vitro
Tested at: 20 nM
Setting: 6-mer, flanks averaged, single round
Added: 150 mM KCl
Baseline: input library
Reading: higher = stronger binding
| Oligonucleotide | 6-mer enrichment (R) |
| --- | --- |
| UGAUAU | 0.647 |
| CAUUAA | 0.577 |
| GGAGCC | 1.49 |
| GAAAGG | 1.9 |
| CCAUAG | 0.685 |
| GGUCGA | 1.46 |
| UGUUAG | 0.884 |
| UAUGGC | 0.825 |

Study 3
Target: XBP1, bZIP domain (human)
Method: DHFR protein complementation
Sample: yeast
Setting: single substitutions, most at no-binding floor
Baseline: wild-type JUN-FOS pair
Reading: higher = stronger binding
Parent: JUN, bZIP domain (human); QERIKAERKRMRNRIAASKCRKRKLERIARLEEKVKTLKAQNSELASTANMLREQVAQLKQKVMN; partner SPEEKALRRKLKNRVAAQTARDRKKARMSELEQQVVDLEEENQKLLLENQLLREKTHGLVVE
| Change | binding fitness [natural log] |
| --- | --- |
| E44N | -1.07 |
| E54Q | -1.42 |
| K36E | -0.664 |
| K39H | -1.32 |
| L59G | -0.233 |
| V56M | -0.621 |
| L31P | -1.44 |
| A40C | -1.22 |

Further values, each from its own experiment
| Substance | partner | test | conditions | endpoint | result |
| --- | --- | --- | --- | --- | --- |
| HNRNPCL3 (Homo sapiens, UniProt B7ZW38) | HNRNPC (Homo sapiens, UniProt P07910) | cross-linking MS | hits only | interaction screen | cross-linked |

For quick reference, copied from above (study 1):
| Change | normalised enrichment score |
| --- | --- |
| TSVRRALFTAGSD [G10A] | 0.23 |
| TSVRRALFTGGLD [S12L] | -0.205 |
| TSVRQALFTGGSD [R5Q] | 0.0966 |
| TSVSRALFTGGSD [R4S] | 0.288 |
